Assay results collected from several papers.
Numbered parts are unrelated; each lists some results of a single study. Changes are numbered by the printed parent chain.

Block 1
Target: Fragile X messenger ribonucleoprotein 1, C-terminal low-complexity region (Fmr1, Mus musculus, UniProt P35922)
Technique: RNA Bind-n-Seq
Molecule type: RNA
Medium: in vitro
Concentration: 200 nM
Setting: whole 134-nt RNA, ends assumed
With: 150 mM KCl
Baseline: input library
Reading: higher = stronger binding
Endpoint: log2 enrichment
Shared flanks, not repeated: GGGAGUUCUACAGUCCGACGAUC … UGGAAUUCUCGGGUGUCAAGG
UCCUGUGCUACACAUCGUAUGUACCGAAUCGGUUUUUUUGGUUUUUUUGGAAAAAAAGGAAAGUAUUAUGUUACGCCGUUCGGAUCUGCA: -0.67
GCAGGAAGUAAAAACAAAAGGAAAUGCUUCGGAUAGUGGCAGGGGUGGGGGUUGCUAAGGAAAGGGUGGGAUGGGAGUGGGUAAAGAGUU: 0.248
UAACUUUAGAGGAGGAUCUGAUGGAUAUGGCAGUGGACGUGGAUUUGGGGAUGGCUAUAAUGGGUAUGGAGGAGGACCUGGAGGUGGCGA: 0.255
GUCCUGUGCUACACAUCGUAUGUACCGAAUCGGGGAAAGGGGAGGGGAAAAAAAGGGGAAAGUAUUAUGUUACGCCGUUCGGAUCUGCAC: 0.205
ACAGGAAGUAAAAACAAAUGGAAAUGCUUCGGAUAGUGGCAGGGGUGGGGGUUGCUAAGGAAAGGGUGGGAUGGGAGUGGGUAAAGAGUU: -0.116
UCCUGUGCUACACAUCGUAUGUACCGAAUCGGGUUUUUGGGGUUUUUGGGGUUUUUGGGAAAGUAUUAUGUUACGCCGUUCGGAUCUGCA: 0.496
GCAGGAAGUAAAAACAAAUGGAAAUGCUUCGGAUAGUGGCAGGGGUGGGGGUUAAAAAGGAAAGGGUGGGAUGGGAGUGGGUAAAGAGUU: 0.112
UCAAGUCCUGUGCUACACAUCGUAUGUACCGAAUCGGGGCCGGCCGGGCCGGGGAAAGUAUUAUGUUACGCCGUUCGGAUCUGCACUUCC: -0.0817
CUGUGCUACACAUCGUAUGUACCGAAUCGGGGUUUUUGGGGUUUUUGGGGAAAAAAAGGGGAAAGUAUUAUGUUACGCCGUUCGGAUCUG: -0.0883
CCUCAAGUCCUGUGCUACACAUCGUAUGUACCGAAUCGGCGGGGCGGGGCGGGAAAGUAUUAUGUUACGCCGUUCGGAUCUGCACUUCCA: 1.04
AAGUCCUGUGCUACACAUCGUAUGUACCGAAUCGGGUUUUUGGGAAAGGGAAAGGGAAAGUAUUAUGUUACGCCGUUCGGAUCUGCACUU: 0.297
CUCAAGUCCUGUGCUACACAUCGUAUGUACCGAAUCGGGGAGGGGAGGGGAGGAAAGUAUUAUGUUACGCCGUUCGGAUCUGCACUUCCA: 0.744
ACCAUGCAGGUGGGCAUCUUUGGGAAGUGGGGCAAGGGGGGGAUAGGGAGGGGGGUAACACUUUGGGAACAGGUGAAACCAGGUCGUUUC: 0.217
UUAGGUGGCUCCAGGAUGUAUUUAACGUGCCCUUGGUCAUCCAGAUGACGGAUGACGAGAAGUAUCUGUGGAAGGACCUGACCCUGGACC: -0.725

Block 2
Target: Histone acetyltransferase KAT6A, both winged helices, GST fusion (KAT6A, Homo sapiens, UniProt Q92794, residues 1-181)
Technique: protein binding microarray
Molecule type: double-stranded DNA, one strand shown
Medium: in vitro
Concentration: not given
Setting: 8-mer, flanks averaged, mean of 2 arrays, mostly near background
Baseline: not given
Reading: higher = stronger binding
Endpoint: E-score
Construct (chain): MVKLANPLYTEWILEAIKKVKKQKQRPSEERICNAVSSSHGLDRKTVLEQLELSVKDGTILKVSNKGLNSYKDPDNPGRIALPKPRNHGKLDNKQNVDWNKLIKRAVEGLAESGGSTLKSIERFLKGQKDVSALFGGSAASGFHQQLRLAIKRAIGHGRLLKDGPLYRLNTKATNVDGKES
CTGGGAAG: -0.0945
GTCACGTA: 0.0059
CTTTTAAA: 0.0261
AGCTCCAC: -0.135
AGTCTGAT: -0.144
GAGCCCTA: -0.167
ACAATAGC: -0.0221
ACAAGGTG: -0.0358
ACGGCTAC: 0.276
ACGCATTC: 0.194
CGAGCTGA: -0.0645
TATGATCA: -0.073
CAGGAAAA: -0.0683
AAGGCACA: -0.216
AGCCCGAC: -0.0297
GTACTAAA: -0.087
CAAGTAGA: -0.127
CGAAGACG: 0.113
CTAAGGCA: 0.00412
GGGATCCC: 0.112
ACGTCAGA: -0.173
GCTCATAA: 0.00797

Block 3
Target: Sal-like protein 4, full length isoform A (SALL4, Homo sapiens, UniProt Q9UJQ4, residues 1-1053)
Chain of UniProt Q9UJQ4 (whole entry, looked up): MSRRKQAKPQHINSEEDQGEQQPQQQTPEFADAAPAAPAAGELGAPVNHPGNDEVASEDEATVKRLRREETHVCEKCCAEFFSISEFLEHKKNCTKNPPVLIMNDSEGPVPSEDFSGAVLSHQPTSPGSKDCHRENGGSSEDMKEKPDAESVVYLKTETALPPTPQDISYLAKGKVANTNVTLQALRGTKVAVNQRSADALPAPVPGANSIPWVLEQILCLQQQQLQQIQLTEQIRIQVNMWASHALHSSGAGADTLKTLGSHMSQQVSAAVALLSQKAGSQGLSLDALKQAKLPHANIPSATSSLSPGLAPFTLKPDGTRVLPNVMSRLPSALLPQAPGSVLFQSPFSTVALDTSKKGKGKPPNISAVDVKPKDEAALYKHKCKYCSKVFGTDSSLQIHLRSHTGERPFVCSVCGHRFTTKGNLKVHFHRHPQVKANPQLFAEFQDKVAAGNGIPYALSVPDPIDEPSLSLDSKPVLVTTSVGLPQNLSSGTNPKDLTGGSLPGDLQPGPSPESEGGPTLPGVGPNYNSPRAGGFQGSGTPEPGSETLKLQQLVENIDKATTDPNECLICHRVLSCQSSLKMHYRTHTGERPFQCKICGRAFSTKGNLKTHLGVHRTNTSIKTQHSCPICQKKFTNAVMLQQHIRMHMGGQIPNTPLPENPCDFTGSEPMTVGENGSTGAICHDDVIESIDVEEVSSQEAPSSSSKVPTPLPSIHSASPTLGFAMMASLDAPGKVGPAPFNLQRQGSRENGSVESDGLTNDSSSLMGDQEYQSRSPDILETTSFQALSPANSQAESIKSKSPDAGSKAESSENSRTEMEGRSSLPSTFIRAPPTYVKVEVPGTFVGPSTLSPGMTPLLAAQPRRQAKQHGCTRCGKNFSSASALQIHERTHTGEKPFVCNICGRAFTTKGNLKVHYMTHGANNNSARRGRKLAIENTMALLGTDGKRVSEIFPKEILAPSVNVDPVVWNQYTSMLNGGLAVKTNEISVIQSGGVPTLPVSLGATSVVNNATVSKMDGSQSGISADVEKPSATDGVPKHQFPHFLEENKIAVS
Technique: universal PBM
Molecule type: double-stranded DNA, one strand shown
Medium: in vitro
Concentration: 600 nM
Setting: 8-mer, flanks averaged, mean of replicates
Reading: higher = stronger binding
Endpoint: E-score
CTGAGCTA: -0.185
CAGTTCAA: 0.0505
CTAGTAGC: -0.103
CGCCGACA: -0.266
CCCGGCAA: -0.222
ACAATCAT: 0.234
ACGCGTCC: -0.158
ATAACAGG: 0.0891
CGGCTTAA: -0.0574
ATGATAGG: 0.0115
CCGCTGCC: -0.259
ACCGGCGG: -0.336
GCTCGCAC: -0.292
GGGTAAGA: -0.0596
CCTGGGAC: -0.317
CTATGACC: 0.122
ATGCGCAA: 0.0685
CACCTGCG: -0.291
GACAGGAA: 0.0806
ATCAAAGC: -0.0668
GTGGACAA: 0.04
GGTCAACC: -0.193
CACGAGGG: -0.309
CCTTGAAA: 0.0511
GGCTAATA: 0.212

Block 4
Target: Hepatocyte nuclear factor 3-alpha (Foxa1, Mus musculus, UniProt P35582, residues 1-468, full length assumed)
Technique: EMSA with sequencing
Molecule type: double-stranded DNA, one strand shown
Medium: in vitro
Concentration: 10 and 20 nM
Setting: whole designed probe, mean of two concentrations, ends assumed
Baseline: negative control set to 0
Reading: higher = stronger binding
Endpoint: normalised bound fraction
Shared flanks, not repeated: GTGAGCGGTGCCCATTGATGGGGAAC … TTTCACTGGGATCGTGGGGAC
Target sequence (chain): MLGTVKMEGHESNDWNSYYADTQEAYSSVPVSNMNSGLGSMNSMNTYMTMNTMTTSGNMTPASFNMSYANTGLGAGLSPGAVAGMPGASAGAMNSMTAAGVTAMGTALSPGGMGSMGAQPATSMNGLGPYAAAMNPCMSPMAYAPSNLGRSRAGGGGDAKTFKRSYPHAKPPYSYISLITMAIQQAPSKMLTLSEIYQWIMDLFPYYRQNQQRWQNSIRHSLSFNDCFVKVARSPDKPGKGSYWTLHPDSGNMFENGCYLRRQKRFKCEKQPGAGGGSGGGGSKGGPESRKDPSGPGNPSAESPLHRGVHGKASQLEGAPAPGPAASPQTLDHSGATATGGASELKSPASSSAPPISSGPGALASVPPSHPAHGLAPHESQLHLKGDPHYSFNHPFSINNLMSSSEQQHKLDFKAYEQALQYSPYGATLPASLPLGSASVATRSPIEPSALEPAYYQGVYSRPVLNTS
TGATGATACGTTATAGCATTTCTCTGCTCTGTAAGAGAGGCACCAGGGTCGTGTGCTGGGTCTGGGGTTTGTCCATTCCACAACGGGTGCTGCTGTTGACTCTGGTGTCGGCCGCTGGTGAGCTGGCTGTAGCTGGTCACCTCTGGGTGGTTTCTGGGGCGGTCGCAGGCTGACTAACACACCAAAGGTCAGC: -0.00479 ratio
GCCCCTTCCTCCCCAGCTTTATTAGGGTGAGTGTTGGAGCCCACCCAAGGGTCCATGCTGTCATTGGTACTTTGCACCTACATGGCCATTCTGTTGTTTACTTTGGTTTGAGCCGTGGAAACAGAGACTGAAGAGCAGCAGGCACCAGCCTCTGTGCTGTCCCTACTCAGGCCCCCAGTTGGGGGTGAGGAGC: 0.442 ratio
AGTTGCAGTCCAGGAAAAAGAAGGCACAAACACTGCTGATCAAATATTACTAAAGCTTTTATGGACTCTTGAACCTCATTTTCCCTCCCATATGTACACAAGACACACTTCATTCTTACTCTGTTTATGCCTCTCTGTCTAATAGAAACTTCACTTCTGACTCCAGCTTTGTCTAATTATTAACACAGAGAGG: 0.282 ratio
AGTTTATAGATAGATGGATAAATATTTTTTACATGGAGAAGGCGTAATAGGAAATATCATACTGATTATGAAGTACTTTCAAAACATTGACAATGTAATCTAATATTAATTAATAGGAGACAAGCATATTAAATGAATCCAGTATAATTGGTGTTACACTGGTGCAAAGTATTGAATGTTTGCTTCCCCACCC: 0.0553 ratio
TGAGCCCTTGAATTTCCAATTTTCCCTTTGTCTCCCATTCTTAATATTTCTCAAAAAAATTCAATTATTCCCTCTCTTAAAATAAACTCAATGTAAACAGGGTATATAAACTATGGATCACAATTGAATGAAACATTCTGCAAATATTGAAAATTATCTGTCTAATCTATATATTGATGATAGGAAATGTATT: 0.225 ratio
CTGCACCACTCAGCCCCTCCTAGTCCGCTGGAGAAAGTGGCTGAGGGGGTGGTGGGGGATAATTGCATTTCCAAAGTCCGGGCAATCAGCCAATGTAATCTGGCACCTGCGTCACTGTGTGGGCTCTCTAGGCAACAGGTAAAATACATCAAATACACACAATTTCCTGACATTCCAATGCATTTCTGCGTGA: 0.00729 ratio
AATGCATTAAGAAAAAGTACACAAATAGTAAGTATACAGCTCAATACATTATTTTGTGAAAATACCTATGTAAGAACTAATGTTGGCAATTAAAGTAAACATGAATAAAACCTTCAAGAAGCCCTCAACATCCCACTTCCAAGTCACCAAACCCACTATTCCATTAGCAATGTGTGAGATTGTCAGTTGCTCT: 0.404 ratio
TCCCTTTTAGAACATGGTGATTTCTCCCCATTTGATGGGCCCTTTTAGACAGCCAGCTCATGCCTTTTCTCCTGGTAAGGGTCTGAAGGTGATGTTTACTTAGATGATGATGAAGTCTGGACAAATGATTCCAAAGGCAAAGATGAATATTCTTCAGGATTTAATGTGGTCATTGAACTTGAAGAGTGGTCAA: 0.412 ratio

Block 5
Target: CCNA1, cyclin fold, Cln2 fusion (human)
Technique: yeast growth competition, sequencing
Medium: yeast
Setting: strong parent motif
Baseline: not given
Reading: higher = stronger binding
Endpoint: normalised enrichment score
Parent: RBL2 docking peptide (human); STTRRRLFVENDS
T2I: 0.441
D12F: 0.353
N11P: 0.714
N11C: 0.676
S1I: 0.567
T3V: 0.908
R4S: 0.041
S13W: 0.801
V9A: 0.757
D12L: 0.309
R4N: 0.242
S1D: 0.687
V9L: 0.51
S1Q: 0.581
N11G: 0.65
T2F: 0.493
L7N: 0.034
S13Q: 0.285
R6E: 0.453
D12W: 0.41
T3R: 0.479
E10M: 0.584
R6M: 0.422
S13C: 0.785
T2R: 0.555

Block 6
Target: PABPC1L2, full length, GST fusion (mouse, UniProt A0ABA7IW68)
Technique: RNAcompete
Molecule type: RNA
Medium: in vitro
Concentration: 20 nM
Setting: 7-mer, probes averaged, single round
Baseline: mean of 7-mers
Reading: higher = stronger binding
Endpoint: 7-mer Z-score
Target sequence (chain): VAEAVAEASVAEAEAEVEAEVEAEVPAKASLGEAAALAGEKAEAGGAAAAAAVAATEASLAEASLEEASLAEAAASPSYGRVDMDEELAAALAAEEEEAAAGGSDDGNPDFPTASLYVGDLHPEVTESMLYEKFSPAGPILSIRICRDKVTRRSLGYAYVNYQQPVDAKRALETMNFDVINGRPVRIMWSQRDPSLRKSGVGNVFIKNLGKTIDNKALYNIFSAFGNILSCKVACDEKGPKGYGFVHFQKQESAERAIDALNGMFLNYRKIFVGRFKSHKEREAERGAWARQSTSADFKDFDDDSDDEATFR
UGUGUAG: -0.264
AGUUAGC: -0.15
AAUCUUG: -0.11
CAUGAUG: -0.159
UCUAACC: -0.318
UUCCACG: -0.271
GGUCGCU: -0.257
UUAUUUU: -0.264
CCGCAAU: -0.209
UUGGCUU: -0.191
GCUCCCC: -0.269
CCCAUUG: -0.325
GUACUCA: -0.122
AAUGUCU: -0.159
GUCGAAC: -0.217
GCCGUGU: -0.267
UCCUCUG: -0.407
UAAGUUG: -0.222
CGUCCUG: -0.32
UUUCAAA: 0.151
UUUAAGG: 0.336

Some of these lines once more (block 2):
ACGCATTC: 0.194
CTTTTAAA: 0.0261
AGCTCCAC: -0.135
AAGGCACA: -0.216
AGTCTGAT: -0.144
CTAAGGCA: 0.00412
ACAATAGC: -0.0221
CGAAGACG: 0.113
AGCCCGAC: -0.0297
TATGATCA: -0.073
CTGGGAAG: -0.0945
GCTCATAA: 0.00797
CAAGTAGA: -0.127
